Measurements from different studies.
Each numbered part is a random draw from the data of one study; scales do not carry over between parts.

Sample 1 — technique: RNA Bind-n-Seq; form: RNA; sample: in vitro; concentration: 1 µM; notes: whole 134-nt RNA, ends assumed; added: 150 mM KCl; relative to: input library; direction: higher = stronger binding; measurement: log2 enrichment
Target: Ras GTPase-activating protein-binding protein 1, RRM domain (G3BP1, Homo sapiens, UniProt Q13283)
Chain of UniProt Q13283 (whole entry, looked up): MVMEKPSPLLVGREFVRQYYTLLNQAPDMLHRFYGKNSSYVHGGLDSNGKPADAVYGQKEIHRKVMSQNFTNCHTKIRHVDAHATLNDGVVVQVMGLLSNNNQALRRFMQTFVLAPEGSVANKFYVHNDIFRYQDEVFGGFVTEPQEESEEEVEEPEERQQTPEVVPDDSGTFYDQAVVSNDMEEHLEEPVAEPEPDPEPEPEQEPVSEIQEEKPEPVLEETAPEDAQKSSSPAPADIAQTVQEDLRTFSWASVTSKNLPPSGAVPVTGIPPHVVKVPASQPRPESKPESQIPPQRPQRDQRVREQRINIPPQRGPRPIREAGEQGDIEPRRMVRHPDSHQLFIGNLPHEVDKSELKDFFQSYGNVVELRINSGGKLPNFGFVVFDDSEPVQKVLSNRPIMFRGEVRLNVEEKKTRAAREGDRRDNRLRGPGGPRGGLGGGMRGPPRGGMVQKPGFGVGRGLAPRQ
All sequences stand within: GGGAGUUCUACAGUCCGACGAUC … UGGAAUUCUCGGGUGUCAAGG
UGUUUUAAGGUUGCCAACUUUGCAACAAUGGAAGAUGAAGAAGAGCUAGAAGAGCGUCCUCACAAGGACUGGGAUGAGAUCAUUCCAGAG: -0.336
CCUCAAGUCCUGUGCUACACAUCGUAUGUACCGAAUCGGAAGGAAGGGAAGGGAAAGUAUUAUGUUACGCCGUUCGGAUCUGCACUUCCA: -0.279
UGUGCUACACAUCGUAUGUACCGAAUCGGGGUUUUUUUGGGGUUUUUUUGGGGUUUUUUUGGGAAAGUAUUAUGUUACGCCGUUCGGAUC: -0.16
GCAGGAAGUAAAAACAAAUGGACAUGCUUCGGAUAGUGGCAGGGGUGGGGGUUGCUAAGGAAAGGGUGGGAUGGGAGUGGGUAAAGAGUU: 1.57
CCUGUGCUACACAUCGUAUGUACCGAAUCGGGGCCCCCCCGGGCCCCCCCGGCCCCCCCGGAAAGUAUUAUGUUACGCCGUUCGGAUCUG: -0.642
AGUCCUGUGCUACACAUCGUAUGUACCGAAUCGGGUUUUUGGGUUUUUGGUUUUUGGAAAGUAUUAUGUUACGCCGUUCGGAUCUGCACU: -0.228
UGGGAGGUGGAUUUUGUUUAUUUUUUGAGCUCAUUUCCAGGGGUGGGAAUUUUUUUUUAAUAUGUGUCAUGAAUAAAGUUGUUUUUGAAA: 2.08
AAUGCCCACAAGGUCCCUCCCCCAUGGCUGAUUGCCAUGCAGCGAUAUGGACCACCCCCAUCGUAUCCCAACCUGAAAAUCCCUGGGCUG: -0.294
CUCAAGUCCUGUGCUACACAUCGUAUGUACCGAAUCGGUGGUUUUUUUGGUGGAAAGUAUUAUGUUACGCCGUUCGGAUCUGCACUUCCA: -0.218
GUCCUGUGCUACACAUCGUAUGUACCGAAUCGGGUUUGGGUUUUUGGGUUUUUUUGGGAAAGUAUUAUGUUACGCCGUUCGGAUCUGCAC: 0.221
AGUCCUGUGCUACACAUCGUAUGUACCGAAUCGGGAAAGGGAAAGGGAAAAAAAGGGAAAGUAUUAUGUUACGCCGUUCGGAUCUGCACU: 0.24
UCCUGUGCUACACAUCGUAUGUACCGAAUCGGGGAAAAAGGGGAAAGGGGUUUUUGGGGAAAGUAUUAUGUUACGCCGUUCGGAUCUGCA: 1.06
UGGGAGGUGGAUUUUGUUUAUUUUUUUAGCUCAUUUCCAGGGGUGGGAAUAUUUUUUUAAUAUGUGUCAUGAAUAAAGUUGUUUUUGAAA: 2.11
AGUCCUGUGCUACACAUCGUAUGUACCGAAUCGGGUUUUGGGGUUUUGGGUUUUGGGAAAGUAUUAUGUUACGCCGUUCGGAUCUGCACU: 0.526

Sample 2 — technique: EMSA with sequencing; form: double-stranded DNA, one strand shown; sample: in vitro; concentration: 10 and 20 nM; relative to: negative control set to 0; direction: higher = stronger binding; measurement: normalised bound fraction
Target: Hepatocyte nuclear factor 3-alpha (Foxa1, Mus musculus, UniProt P35582, residues 1-468, full length assumed)
Notes: whole designed probe, mean of two concentrations, ends assumed
All sequences stand within: GTGAGCGGTGCCCATTGATGGGGAAC … TTTCACTGGGATCGTGGGGAC
Residues (chain): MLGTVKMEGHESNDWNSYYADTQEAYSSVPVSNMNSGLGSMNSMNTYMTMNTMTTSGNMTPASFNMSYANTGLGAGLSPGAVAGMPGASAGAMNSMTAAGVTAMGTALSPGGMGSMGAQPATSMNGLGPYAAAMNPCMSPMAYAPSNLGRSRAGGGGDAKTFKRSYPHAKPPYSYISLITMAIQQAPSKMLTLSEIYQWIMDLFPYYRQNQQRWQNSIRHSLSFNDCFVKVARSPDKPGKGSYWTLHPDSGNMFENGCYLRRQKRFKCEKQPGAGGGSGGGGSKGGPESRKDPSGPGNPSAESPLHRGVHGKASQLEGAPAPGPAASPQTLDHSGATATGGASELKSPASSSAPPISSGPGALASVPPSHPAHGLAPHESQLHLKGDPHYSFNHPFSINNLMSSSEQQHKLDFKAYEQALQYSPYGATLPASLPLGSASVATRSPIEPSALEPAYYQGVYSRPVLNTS
ATATCAATTTTAGAACCTAGTAATGAAGGACAATAAAATTATTTTAAAACAAATAACATTTGATGAATACATTAATTAGAAATGCTTCCCCATGTTTACATATAATTGACATACCCAAAAAACAAACAAACAATAACTAACTTATGGTAAGTGACATTTGCTGAAAAGCTGGTTAATGTATCTAAATTCCGAG: 0.535 ratio
ATCTTCCCCCTCTTCCTTGCCCCACCAGCTCACCTTCCCGGGTTATTTGCAGATAGGAAAATAAATAAAGCCGGCATTCGTTAACCCTCTTCTGGCGCAAACTGCTGTTTGCTCTGGATGAATCATGGTCCTTTGGCGCCGCAAGCGTCCGGGAGAGCAAAGCACCGTGTCAGGGCCATGATCCGGGGTGGCC: 0.329 ratio
ATCTTCCCCCTCTTCCTTGCCCCACCAGCTCACCTACGGGGGTTATTTGCACAAAGGAAAATAAATAAAGCCGGCATTCGTTAACGCAGTTCACGCGCATACTGCTGTTTGCTCTGGATGAATCATGGTCCTTTGGCGACGCCAGGCTCCGGGAGAGCAAAGCACCGTGTCAGGGCCATGATCCGGGGTGGCC: 0.383 ratio
TGTCCCCAAACTAAATTAACAACTTTTTCCAAGACAAGTTCCAACACCAATTCATCCCCCAACTCCCCCGCCTCTTTTTTTTTTTTTTTTTAAAGTAATCTAGGATACCTTCATTCTCTCAGGAAAAAGGTGACATCAAATTACCTTCTCTTTTTTCTTCTCAATCTTCCAAAACCTTTTCCCAAAGTCATTT: -0.0309 ratio
TAGGCCAGCGGTTTCTTGTATAAAGGAAACAAAAGTCATATAATTCCTTTTACTAAGGTCACTGAGCATTGCAGCTTCTTCCACGATGAGAGAGTAAACAGAAGATGACTAAGTGTTTTTGACATCCAAAGTCACCCACAGCCAGAACCAGAGTCTGGGAGAAGTGTATTTTGGACATCGTGACCTCAACTAT: 0.203 ratio
ATCTTCCCCCTCTTCCTTGCCCCACCAGCTCACCTACGGGGGTTATTTGCACAAAGGAAAATAAATAAAGCCGGCATTCGTTAACCCTCTTCTGGCGCAAACTGCTGTTTGCTCTGCATGAATCATGGTCCTTACGCGACGCCAGGCTCCGGGAGAGCAAAGCACCGTGTCAGGCGCATGATCCGGGCTCGCC: 0.38 ratio
AAGGAGAGGATGGAGGGAGGAAGATCAAACAAAGGTTCATAAGAAAAGGCTTGTTAGAACTAAACCTGAAATGATATGTAGAAGCTTGCTAAGTAAACAAGAAATAAAGGTAAATATGGTGTATAGGGAAGAGAATCTTTGTGAAATGGCCTGTGTTCCAGAATTACTTGAGTATAGGAGTAGAACAAAGGGA: 0.558 ratio
ACTACCATAGTTCCTATATACATATATGCCTCTTTCCCAATGCAAGTATGATATACTTTTATTTTGTTATTTGGTTTTCTATCTTTGATTTACAAGATTACACTGACATTTTTTAAGACTCAAATTGCTTAAGGTACAAAAAAATGTATTATTTACTGCAATCTCAACTATTAAAGCTAAAGCATTTCGAAAG: 0.0867 ratio

Sample 3 — technique: aptamer microarray, sandwich; form: DNA with 2'F-ANA; sample: in vitro; concentration: 200 nM; added: Cy3 exosite-II aptamer, 400 nM; direction: higher = stronger binding; measurement: mean fluorescence intensity; strand: GGTTGGTGTGGTTGG
Target: Prothrombin, mature alpha-thrombin (F2, Homo sapiens, UniProt P00734)
Notes: whole 15-mer aptamer, many near background
2'F-ANA at 2 3 6 7 9 10 11 12 14 15: 233 a.u.
2'F-ANA at 1 3 5 7 9 13 14: 50 a.u.
2'F-ANA at 1 4 6 8 9 13 14 15: 77 a.u.
2'F-ANA at 1 4 7 9 10 14 15: 45.3 a.u.
2'F-ANA at 3 7 8 10 11 12 14 15: 400 a.u.
2'F-ANA at 4 6 7 9 10 12 14 15: 63.1 a.u.
2'F-ANA at 1 4 5 7 15: 61.4 a.u.
2'F-ANA at 3 8 15: 1190 a.u.
2'F-ANA at 3 5 6 7 8 10 13 14: 47 a.u.
2'F-ANA at 2 4 6 7 9 10: 82.8 a.u.
2'F-ANA at 3 6 9 10 12 14: 404 a.u.
2'F-ANA at 1 3 4 6 7 8 9 10 12: 88.5 a.u.
2'F-ANA at 1 2 3 6 9 10 15: 67.5 a.u.
2'F-ANA at 3 4 5 6 8 9 10 14 15: 48.7 a.u.
2'F-ANA at 2 6 7 8 10 12 13 15: 174 a.u.
2'F-ANA at 1 2 5 6 7 9 12 13: 76.7 a.u.
2'F-ANA at 3 5 7 13 15: 95.5 a.u.

Sample 4 — technique: protein-binding microarray; form: double-stranded DNA, one strand shown; sample: in vitro; concentration: 2540 nM top; notes: 60-bp whole probe; added: salmon DNA 0.4 mg/ml; relative to: random background probes; direction: higher = stronger binding; measurement: fitted relative affinity; all sequences stand within: GCCTAGCAC … GTCTTGATTCGCTTGACGCTGCTG
Target: Interferon regulatory factor 3, full length, phosphomimetic (IRF3, Homo sapiens, UniProt Q14653, residues 1-427, S386D/S396D/S398D/S402D/T404D/S405D)
Residues (chain): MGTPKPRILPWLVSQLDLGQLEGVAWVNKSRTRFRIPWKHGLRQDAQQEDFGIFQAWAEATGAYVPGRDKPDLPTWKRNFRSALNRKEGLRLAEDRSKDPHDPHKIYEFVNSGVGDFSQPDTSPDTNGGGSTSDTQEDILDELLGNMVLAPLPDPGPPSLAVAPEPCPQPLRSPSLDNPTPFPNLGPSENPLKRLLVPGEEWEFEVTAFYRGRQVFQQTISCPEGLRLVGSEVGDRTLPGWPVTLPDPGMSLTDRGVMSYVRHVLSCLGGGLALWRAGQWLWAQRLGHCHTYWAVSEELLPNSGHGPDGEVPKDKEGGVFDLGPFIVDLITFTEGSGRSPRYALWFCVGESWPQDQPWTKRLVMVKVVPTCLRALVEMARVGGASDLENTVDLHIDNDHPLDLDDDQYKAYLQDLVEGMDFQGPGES
TCAGGACTGCTACTGCTTTAGTGCTAG: -0.584 z-score
GACGGATTCGGTTCCGGGACGTGCTAG: 4.57 z-score
GACGAACTGAGACTAGAGACGTGCTAG: -0.133 z-score
GACGGTTCCGGTTTCGGTACGTGCTAG: 7.76 z-score
GACGGTATCGGGTTACGGGACGTGCTA: 2.27 z-score
TCAGTCATCGATTTCTTACTGTGCTAG: 0.391 z-score
TTAGGTTTCCTTCCCCTTTAGTGCTAG: 5.45 z-score
TTAGAACTCAGTATCGATTAGTGCTAG: 0.677 z-score
GACGGTTTCGGGTTTCGTGACGTGCTA: 5.34 z-score
TTAGGTATCAACTTTCGGTTAGTGCTA: 2.05 z-score
TTACAGATGTTTTTCATTTTGTGCTAG: 1.17 z-score
GACGAACCGGGGACTGGAGACGTGCTA: -0.623 z-score
ATAGATATCAGACTGGATTAGTGCTAG: 0.147 z-score
GATGGTCTCCTTATCCTGACGTGCTAG: 2.4 z-score
GACGAACTGAGTATCGTGACGTGCTAG: -0.0495 z-score
GACGGTTTCGACACTGGTGACGTGCTA: 3.14 z-score
TTAGGACTGCTACTGCTCTAGTGCTAG: -0.499 z-score
TTATGACTGCTTATCCTTTAGTGCTAG: 0.0131 z-score
TTAGGTCTGCTTATCCTTTAGTGCTAG: 0.0465 z-score
TTAGGTCTCGGTCTCGGTTGGTGCTAG: 0.835 z-score

Sample 5 — organism: Saccharomyces cerevisiae; read-out: growth after mating arrest; technique: competitive growth deep sequencing; form: peptide; notes: strain without Cln2 fusion; direction: direction not given; measurement: enrichment score
EPRNLLSLFEDTLDPT: 0.0286
GPVKLEFDVSDGAT: 0.147
PHKTFRKLRLFDTPHT: -0.209
GTPKRCLDLSNLSSGE: 0.226
RQVRRDLFAF: -0.498
KRCATPVIIDEILPSK: -0.19
AKRSLGFLPQPVPL: -0.862
RTEALEQGGLPKKLIF: 0.475
VKRLNFRSEEME: -0.845
YLYLLLTQSLWCRV: -0.392

Single results of other studies
PhoQ, residues 284 288 289 292 302 303 SASVAL — fold induction (PhoP, residues 12 14 15 18 19 LHHSG (Escherichia coli, UniProt P23836); Sort-seq, measured: YFP reporter; E. coli; PhoQ-PhoP variant library, added: 10 µM Mg2+; relative to: high Mg2+ state, higher = stronger signaling): 16.9
